Published values gathered from unrelated publications.
Numbered parts are unrelated; each lists some results of a single study.

Block 1 — method: RNA Bind-n-Seq; molecule type: RNA; medium: in vitro; tested at: 365 nM; reference: no-protein control; reading: higher = stronger binding; endpoint: RBNS enrichment (R)
Target: RNA binding protein fox-1 homolog 2, RRM domain, GST-SBP tag (RBFOX2, Homo sapiens, UniProt O43251-10, residues 100-194)
Notes: natural RNA segment, single round, ends assumed
All sequences stand within: GGGAGUUCUACAGUCCGACGAUC … UGGAAUUCUCGGGUGCCAA
Residues (chain): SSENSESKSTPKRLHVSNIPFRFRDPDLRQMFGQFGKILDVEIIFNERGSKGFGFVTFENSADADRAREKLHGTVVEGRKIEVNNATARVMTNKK
Oligonucleotide = GAAAAAAUUCUAACAGCUGUUAGUUUUGUAAUUAAAAAGGAACAAAAAUAAAAAGUUUGUCCUGAACCUUUUACAGAUUUGCCAUAACAGCAUUAAAGUGAUUGAACAGA; result = 0.337
Oligonucleotide = UGAGACAUGACUUCAAGACUCGAGACUUGGUAGAAUCCUUUUACUUGGCCAUCUGAGUAGAAAUAGGAGUAGCUUUAAGAAAAAGGCAGAUUCUCUAAAGGAAUUUGGAG; result = 0.622
Oligonucleotide = GACUUAGGCAAUACACCAAGGGCGAGAUUUUAUAUGCACAUUUCUGGAUUUUUUUAUAUGCUUUUCAUUGAUACCCUUCCCUCCUCCCACCUGCUGCCAGGCCUCACCAA; result = 0.729
Oligonucleotide = GAUGGGGAAAACAAGAAGGACAAAUAGGAUCCUGCAUUGUUUUUGCUUCCUCUCCUGUCAAUUUCAGGAACCUUUGAGGCCCAGUUCCAGCUAUAACCACAAUCCUUGCC; result = 0.802
Oligonucleotide = CCGUGCCCCUAAAACAGCAGGCAGCUUCCCCCCCACCCUGGUGUGCACACCAGGAGUGUUUGCACAGAAUACUGGGUGUCUUCUGUCUUGAAGAAAGGCAGUGUCCCCGA; result = 0.564
Oligonucleotide = CUUUCUCCUUUCAAAAAAUGUCUACUUUGUUUUGGUCCUAGGCAUUAGGUAAUAUAACUGAUAAUAUACUGAAACAUAUAAUGGAAGAUGCAGAUGAUAAAACUAAUUUU; result = 0.477
Oligonucleotide = AGCUGCAAAAUCCGAUGAGACUGCCGCCAAGUAAGCCUUAGCCCGGAUGCCCACCCCUGCUGCCGCCACUGGCUGUGCCUCCCCCGCCACCUGUGUGUUCUUUUGAUACA; result = 0.218
Oligonucleotide = GGGCGGGCCAGCGGGCACCAGGACUGGUCUCCUCUGCGCUCUGAUUUGUUGACUGAAACUGUAAGGGGAUCUCUCCCAGAGACUUGACAUUUUAGCUUUAUGUGUCUUAA; result = 0.841

Block 2 — method: protein-binding microarray; molecule type: double-stranded DNA, one strand shown; medium: in vitro; tested at: 2540 nM top; notes: 60-bp whole probe; together with: salmon DNA 0.4 mg/ml; reference: random background probes; reading: higher = stronger binding; endpoint: fitted relative affinity; all sequences stand within: GCCTAGCAC … GTCTTGATTCGCTTGACGCTGCTG
Target: Interferon regulatory factor 3, full length, phosphomimetic (IRF3, Homo sapiens, UniProt Q14653, residues 1-427, S386D/S396D/S398D/S402D/T404D/S405D)
Residues (chain): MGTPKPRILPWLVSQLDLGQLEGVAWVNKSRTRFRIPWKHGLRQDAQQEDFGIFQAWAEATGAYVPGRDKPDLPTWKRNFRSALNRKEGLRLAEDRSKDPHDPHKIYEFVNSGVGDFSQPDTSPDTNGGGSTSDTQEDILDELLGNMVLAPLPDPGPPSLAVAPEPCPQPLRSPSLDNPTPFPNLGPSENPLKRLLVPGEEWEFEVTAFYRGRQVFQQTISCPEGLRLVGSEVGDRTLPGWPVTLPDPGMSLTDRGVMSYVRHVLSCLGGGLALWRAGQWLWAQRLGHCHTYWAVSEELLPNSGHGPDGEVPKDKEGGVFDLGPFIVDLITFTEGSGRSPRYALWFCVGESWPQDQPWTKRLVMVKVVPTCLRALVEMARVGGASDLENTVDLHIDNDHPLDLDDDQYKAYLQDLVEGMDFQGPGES
Oligonucleotide = GACGATAACAGTTTCGAGACGTGCTAG; result = 2.09 z-score
Oligonucleotide = TTTGCTTTAGTCATTCACTGAGTGCTA; result = -0.0527 z-score
Oligonucleotide = AGGACTCTGGAGGTTGAGAAAGTGCTA; result = -1.14 z-score
Oligonucleotide = TACGGTCTCCTACTGCTGACGTGCTAG; result = 1.05 z-score
Oligonucleotide = CAGAAAATAGAAACTCGTGTTGTGCTA; result = 0.154 z-score
Oligonucleotide = TTAGGTTTCCTTATCATTTAGTGCTAG; result = 8.13 z-score
Oligonucleotide = GACGGACTGGGGACTGGGGTCGTGCTA; result = -0.806 z-score
Oligonucleotide = TCCTTTATGTACTCTCTACATGTGCTA; result = 1.5 z-score
Oligonucleotide = TCATTTCTACTTCTGTTACTGTGCTAG; result = 2.63 z-score
Oligonucleotide = GACGGTATCGGGACTGGAGACGTGCTA; result = 2.01 z-score
Oligonucleotide = TCACTTTTTTTTCTTTAACTGTGCTAG; result = 2.18 z-score
Oligonucleotide = GACGGACTGGGTTTCGGGCCGTGCTAG; result = 0.157 z-score
Oligonucleotide = GACGTACTGCTTATCCTGACGTGCTAG; result = 0.16 z-score
Oligonucleotide = GACGAACTGGAGTTTCGAGACGTGCTA; result = 0.904 z-score
Oligonucleotide = TTAGATATCGGCACTGGATTAGTGCTA; result = -0.499 z-score
Oligonucleotide = TTAGATATCGGGTCTCGATTAGTGCTA; result = 0.535 z-score
Oligonucleotide = TTAGGAGTGGACTATCGGTTAGTGCTA; result = -0.555 z-score
Oligonucleotide = TCATCTCTGCTTCTGTAACTGTGCTAG; result = 0.845 z-score
Oligonucleotide = GACGAACTGAGTATCAAGACGTGCTAG; result = -0.0265 z-score

Block 3 — method: protein binding microarray; molecule type: double-stranded DNA, one strand shown; medium: in vitro; tested at: not given; reference: not given; reading: higher = stronger binding; endpoint: E-score
Target: Histone acetyltransferase KAT6A, winged helix 1, GST fusion (KAT6A, Homo sapiens, UniProt Q92794, residues 1-85)
Notes: 8-mer, flanks averaged, mean of 2 arrays, mostly near background
Target sequence (chain): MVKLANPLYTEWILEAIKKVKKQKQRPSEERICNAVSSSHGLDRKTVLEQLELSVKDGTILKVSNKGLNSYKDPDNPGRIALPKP
Oligonucleotide = GCGTTCCC; result = 0.24
Oligonucleotide = ACTGAAAG; result = 0.0726
Oligonucleotide = AGACCGAT; result = 0.0567
Oligonucleotide = AGTATTCA; result = -0.0557
Oligonucleotide = AAATCAAG; result = -0.0788
Oligonucleotide = CCATGATC; result = -0.195
Oligonucleotide = ATTCGCGA; result = 0.00813
Oligonucleotide = GTGAAGGA; result = -0.021
Oligonucleotide = CCACGTTC; result = -0.112
Oligonucleotide = AGATTAAC; result = 0.0127
Oligonucleotide = CCAAATCG; result = -0.0417
Oligonucleotide = AGGCAGGC; result = 0.0239
Oligonucleotide = ACAATGCT; result = -0.14
Oligonucleotide = GAGATCGC; result = 0.0585
Oligonucleotide = ACGCTGAT; result = 0.262
Oligonucleotide = AGAATCTC; result = -0.22
Oligonucleotide = CATGCCGA; result = 0.222
Oligonucleotide = ATGAGACC; result = -0.108
Oligonucleotide = CCCAAGGG; result = -0.0762
Oligonucleotide = CTCCTGTA; result = -0.00968
Oligonucleotide = CTTATCCC; result = -0.033
Oligonucleotide = ATACTAAT; result = -0.112
Oligonucleotide = ACTCGGCA; result = 0.16
Oligonucleotide = AGGACTGA; result = -0.169
Oligonucleotide = GAAGAGAA; result = -0.141

Block 4 — method: competition protein-binding microarray; molecule type: double-stranded DNA, one strand shown; medium: in vitro; tested at: 2 µM; together with: Cbf1 competitor, 0.05 µM; reading: higher = stronger binding; endpoint: fluorescence intensity; all sequences stand within: … GTCTTGATTCGCTTGACGCTGCTG
Target: Phosphate system positive regulatory protein PHO4, full length, GST-tagged (PHO4, Saccharomyces cerevisiae, UniProt P07270, residues 1-312)
Notes: whole 60-bp probe, lowest competitor level
Construct (chain): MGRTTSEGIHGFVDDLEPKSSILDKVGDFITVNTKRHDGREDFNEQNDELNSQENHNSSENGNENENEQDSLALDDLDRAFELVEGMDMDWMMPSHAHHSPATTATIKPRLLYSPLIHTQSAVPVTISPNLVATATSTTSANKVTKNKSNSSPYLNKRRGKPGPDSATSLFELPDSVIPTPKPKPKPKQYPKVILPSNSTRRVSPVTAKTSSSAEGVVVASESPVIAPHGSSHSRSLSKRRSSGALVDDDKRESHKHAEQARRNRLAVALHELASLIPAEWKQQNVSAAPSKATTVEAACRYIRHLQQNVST
Oligonucleotide = AAAGCGGTAATTTGTCCAGTGGGTGCAGATATCTAT; result = 3980 a.u.
Oligonucleotide = TAAGGCCTTTATTGCGTCGTGCTTTCTCCTCTCATA; result = 6580 a.u.
Oligonucleotide = CTAACGAAGGTTTGTCACCGGACTTACAAGCCAAGT; result = 2610 a.u.
Oligonucleotide = AGGATAATCAGCTCTGTCGTGACGGATAAATGCTAT; result = 4040 a.u.
Oligonucleotide = CAAATCTCGGAATTTATCATGACGGATTACATAACA; result = 3190 a.u.
Oligonucleotide = TTTCGAGAGCATACCCACGGGTAGGAAAGAAAGAGG; result = 7890 a.u.
Oligonucleotide = TTTTTGCAGATCCCAATATTTCTACAGCCTTTGGGA; result = 2360 a.u.
Oligonucleotide = CTTTCCCGATCTTGCGACGTGGGTGTAGCACATTTG; result = 6820 a.u.
Oligonucleotide = TCGCCGGACCAAGTTTCCGTGATGGTCGTTCTAGGA; result = 3760 a.u.
Oligonucleotide = CACTCCCGCAGTCCTGGCGTGATGGGCCACTGCAGT; result = 4630 a.u.
Oligonucleotide = TGCGCAACAACTTGCTCGGTGGGTGTATGTCTAGAA; result = 4440 a.u.
Oligonucleotide = CGGACAATATCGGTACTCGTGAAACATTTCTTGCTG; result = 5470 a.u.
Oligonucleotide = AAATTACTAAGTTGACGAGTGGGTGACGCCGTATGA; result = 4130 a.u.
Oligonucleotide = CTTCTGTAAATTTGACGAGTGGGTGGACGCGCCCCG; result = 3990 a.u.
Oligonucleotide = CGGGGTTAAGTTTGTCACCCGACTTGCTTGCAGCAG; result = 3240 a.u.
Oligonucleotide = AAATTACTAAGTTGCTTCGTGGGTGACGCCGTATGA; result = 6870 a.u.
Oligonucleotide = CATACCCAACCTTGATCGGTGGGTGAAGATATTTGT; result = 3580 a.u.
Oligonucleotide = TTTTTAATTCGGAATCAGGTGAAAGGTTTTATATCC; result = 3240 a.u.
Oligonucleotide = GTCCAACAAGTATAACAGGTGATACACATAGAAAGA; result = 5130 a.u.

Some of these lines once more (block 3):
Oligonucleotide = ATTCGCGA; result = 0.00813
Oligonucleotide = AGACCGAT; result = 0.0567
Oligonucleotide = ACGCTGAT; result = 0.262
Oligonucleotide = ACTCGGCA; result = 0.16
Oligonucleotide = AAATCAAG; result = -0.0788
Oligonucleotide = GCGTTCCC; result = 0.24
Oligonucleotide = ACTGAAAG; result = 0.0726
Oligonucleotide = AGGCAGGC; result = 0.0239
